Experimental data of several laboratories.
Parts stem from different laboratories: compare values within a part only.
Sequence of UniProt P41240 (whole entry, looked up): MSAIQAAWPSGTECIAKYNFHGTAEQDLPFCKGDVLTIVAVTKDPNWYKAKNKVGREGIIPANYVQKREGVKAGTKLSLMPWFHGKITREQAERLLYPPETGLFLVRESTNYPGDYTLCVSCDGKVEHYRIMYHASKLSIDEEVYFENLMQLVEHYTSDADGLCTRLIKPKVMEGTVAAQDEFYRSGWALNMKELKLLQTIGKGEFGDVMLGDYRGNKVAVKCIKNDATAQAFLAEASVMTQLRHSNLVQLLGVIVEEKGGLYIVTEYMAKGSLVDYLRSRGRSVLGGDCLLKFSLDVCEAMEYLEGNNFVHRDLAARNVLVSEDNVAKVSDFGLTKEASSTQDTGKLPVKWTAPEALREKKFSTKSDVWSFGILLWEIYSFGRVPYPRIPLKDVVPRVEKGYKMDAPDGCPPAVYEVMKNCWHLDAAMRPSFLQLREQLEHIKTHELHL
Sequence of UniProt Q8N5S9 (whole entry, looked up): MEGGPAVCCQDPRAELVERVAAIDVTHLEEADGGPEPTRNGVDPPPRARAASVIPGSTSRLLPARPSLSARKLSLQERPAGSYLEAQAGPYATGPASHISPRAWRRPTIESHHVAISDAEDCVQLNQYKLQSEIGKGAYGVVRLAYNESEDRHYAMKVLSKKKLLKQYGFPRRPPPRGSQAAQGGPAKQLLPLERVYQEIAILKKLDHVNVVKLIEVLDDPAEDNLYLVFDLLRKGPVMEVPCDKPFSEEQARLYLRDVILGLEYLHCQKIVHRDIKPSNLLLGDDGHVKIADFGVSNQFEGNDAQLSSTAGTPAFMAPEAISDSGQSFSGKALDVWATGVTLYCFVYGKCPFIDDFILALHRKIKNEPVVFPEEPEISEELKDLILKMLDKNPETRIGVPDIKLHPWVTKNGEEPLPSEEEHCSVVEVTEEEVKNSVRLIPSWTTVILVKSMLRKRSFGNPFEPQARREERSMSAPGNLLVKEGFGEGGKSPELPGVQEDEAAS
Sequence of UniProt Q8WTQ7 (whole entry, looked up): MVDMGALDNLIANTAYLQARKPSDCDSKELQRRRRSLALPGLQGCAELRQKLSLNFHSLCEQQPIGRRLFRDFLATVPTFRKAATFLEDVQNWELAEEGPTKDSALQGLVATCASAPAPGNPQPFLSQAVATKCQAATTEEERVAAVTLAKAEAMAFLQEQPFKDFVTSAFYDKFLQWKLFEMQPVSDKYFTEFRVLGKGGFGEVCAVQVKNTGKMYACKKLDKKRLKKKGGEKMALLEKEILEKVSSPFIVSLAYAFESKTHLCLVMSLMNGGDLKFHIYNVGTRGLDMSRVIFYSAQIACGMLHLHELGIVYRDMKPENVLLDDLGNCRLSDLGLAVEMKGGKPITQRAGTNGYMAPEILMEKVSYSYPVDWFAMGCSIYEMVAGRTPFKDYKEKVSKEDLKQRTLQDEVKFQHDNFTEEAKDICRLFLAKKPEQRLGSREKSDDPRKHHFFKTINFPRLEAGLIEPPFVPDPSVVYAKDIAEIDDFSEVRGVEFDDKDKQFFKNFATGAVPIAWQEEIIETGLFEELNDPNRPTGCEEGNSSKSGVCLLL
Sequence of UniProt Q15418 (whole entry, looked up): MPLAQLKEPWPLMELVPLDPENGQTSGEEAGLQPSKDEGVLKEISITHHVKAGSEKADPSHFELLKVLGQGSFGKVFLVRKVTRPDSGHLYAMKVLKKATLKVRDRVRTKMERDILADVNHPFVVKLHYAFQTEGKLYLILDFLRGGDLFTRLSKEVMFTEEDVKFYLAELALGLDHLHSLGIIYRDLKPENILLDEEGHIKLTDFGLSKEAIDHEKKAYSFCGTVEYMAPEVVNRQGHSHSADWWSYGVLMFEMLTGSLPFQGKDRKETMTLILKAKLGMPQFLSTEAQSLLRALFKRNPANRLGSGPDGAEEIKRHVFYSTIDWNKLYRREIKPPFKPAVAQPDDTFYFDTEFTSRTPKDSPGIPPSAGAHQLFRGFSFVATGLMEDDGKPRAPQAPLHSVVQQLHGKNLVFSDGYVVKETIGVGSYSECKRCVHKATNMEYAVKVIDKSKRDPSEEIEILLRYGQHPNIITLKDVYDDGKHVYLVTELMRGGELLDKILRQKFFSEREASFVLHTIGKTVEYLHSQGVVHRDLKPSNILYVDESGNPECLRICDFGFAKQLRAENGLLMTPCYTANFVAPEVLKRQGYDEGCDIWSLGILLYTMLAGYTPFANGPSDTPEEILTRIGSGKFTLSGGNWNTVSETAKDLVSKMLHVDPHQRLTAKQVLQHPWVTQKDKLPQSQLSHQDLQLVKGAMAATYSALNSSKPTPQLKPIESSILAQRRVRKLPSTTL
Sequence of UniProt Q9P1W9 (whole entry, looked up): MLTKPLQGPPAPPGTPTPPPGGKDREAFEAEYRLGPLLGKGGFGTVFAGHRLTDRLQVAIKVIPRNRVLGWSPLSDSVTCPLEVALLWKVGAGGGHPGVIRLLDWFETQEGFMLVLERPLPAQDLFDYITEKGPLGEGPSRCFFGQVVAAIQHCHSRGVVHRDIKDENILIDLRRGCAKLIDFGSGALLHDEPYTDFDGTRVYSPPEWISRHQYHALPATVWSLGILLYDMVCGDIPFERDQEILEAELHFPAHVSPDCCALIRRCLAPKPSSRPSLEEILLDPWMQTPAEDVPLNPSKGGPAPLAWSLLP
Sequence of UniProt Q9UKI8 (whole entry, looked up): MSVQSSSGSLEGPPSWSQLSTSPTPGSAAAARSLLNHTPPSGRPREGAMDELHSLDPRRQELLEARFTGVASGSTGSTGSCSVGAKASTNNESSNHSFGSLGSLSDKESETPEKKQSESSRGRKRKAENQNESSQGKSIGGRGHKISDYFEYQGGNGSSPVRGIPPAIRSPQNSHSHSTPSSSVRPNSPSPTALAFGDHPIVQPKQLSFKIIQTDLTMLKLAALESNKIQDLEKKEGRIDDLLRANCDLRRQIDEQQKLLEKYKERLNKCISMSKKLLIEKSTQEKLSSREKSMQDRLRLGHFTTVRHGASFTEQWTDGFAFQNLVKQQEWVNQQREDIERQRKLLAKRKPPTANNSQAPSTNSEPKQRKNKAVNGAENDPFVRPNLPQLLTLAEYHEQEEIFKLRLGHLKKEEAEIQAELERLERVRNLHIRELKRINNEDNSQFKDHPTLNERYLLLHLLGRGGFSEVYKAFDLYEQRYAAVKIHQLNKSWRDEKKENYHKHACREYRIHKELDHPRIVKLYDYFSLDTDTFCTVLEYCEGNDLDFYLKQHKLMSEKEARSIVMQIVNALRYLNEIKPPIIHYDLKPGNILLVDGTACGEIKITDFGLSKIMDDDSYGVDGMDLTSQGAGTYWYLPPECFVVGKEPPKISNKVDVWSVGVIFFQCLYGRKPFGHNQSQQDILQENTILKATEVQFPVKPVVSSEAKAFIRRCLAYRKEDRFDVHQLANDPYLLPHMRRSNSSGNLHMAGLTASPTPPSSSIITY
Sequence of UniProt Q04912 (whole entry, looked up): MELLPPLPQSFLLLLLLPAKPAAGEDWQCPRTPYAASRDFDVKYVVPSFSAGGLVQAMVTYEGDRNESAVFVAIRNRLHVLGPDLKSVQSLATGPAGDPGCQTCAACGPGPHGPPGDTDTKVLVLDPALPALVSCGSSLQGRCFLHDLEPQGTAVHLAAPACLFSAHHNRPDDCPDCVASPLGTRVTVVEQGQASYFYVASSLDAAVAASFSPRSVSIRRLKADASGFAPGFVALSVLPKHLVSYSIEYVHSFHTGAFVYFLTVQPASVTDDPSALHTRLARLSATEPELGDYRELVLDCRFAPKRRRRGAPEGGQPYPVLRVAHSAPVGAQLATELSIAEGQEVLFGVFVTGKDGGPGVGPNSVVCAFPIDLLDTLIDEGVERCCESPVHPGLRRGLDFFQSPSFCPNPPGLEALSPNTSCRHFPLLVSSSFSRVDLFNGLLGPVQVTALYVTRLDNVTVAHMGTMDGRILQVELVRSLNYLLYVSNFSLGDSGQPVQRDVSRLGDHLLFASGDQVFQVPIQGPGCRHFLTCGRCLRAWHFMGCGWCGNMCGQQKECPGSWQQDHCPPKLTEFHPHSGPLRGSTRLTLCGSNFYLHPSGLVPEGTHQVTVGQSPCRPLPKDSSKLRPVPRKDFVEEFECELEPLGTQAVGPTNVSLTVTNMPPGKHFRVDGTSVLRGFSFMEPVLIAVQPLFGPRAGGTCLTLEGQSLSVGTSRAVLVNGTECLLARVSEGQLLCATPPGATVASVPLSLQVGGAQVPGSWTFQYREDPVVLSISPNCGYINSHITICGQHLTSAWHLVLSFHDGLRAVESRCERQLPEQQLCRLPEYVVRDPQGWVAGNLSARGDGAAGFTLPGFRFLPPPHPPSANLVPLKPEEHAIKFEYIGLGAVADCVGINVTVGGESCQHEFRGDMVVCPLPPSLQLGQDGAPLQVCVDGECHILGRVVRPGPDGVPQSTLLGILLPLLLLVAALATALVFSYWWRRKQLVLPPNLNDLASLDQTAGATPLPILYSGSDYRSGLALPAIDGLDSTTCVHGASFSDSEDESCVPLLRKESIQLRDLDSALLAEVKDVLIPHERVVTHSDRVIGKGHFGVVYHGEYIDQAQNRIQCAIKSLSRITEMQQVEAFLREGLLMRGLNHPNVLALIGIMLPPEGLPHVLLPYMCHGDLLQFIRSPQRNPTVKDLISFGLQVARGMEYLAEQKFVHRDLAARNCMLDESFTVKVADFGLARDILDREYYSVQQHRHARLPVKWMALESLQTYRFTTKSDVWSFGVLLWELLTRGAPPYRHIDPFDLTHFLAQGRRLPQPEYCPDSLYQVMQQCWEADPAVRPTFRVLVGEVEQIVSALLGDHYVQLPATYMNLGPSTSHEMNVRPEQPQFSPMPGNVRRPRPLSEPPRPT

Series 1
SMILES: N#CC1(c2ccccn2)CCN(Cc2cc(C(=O)N3CCCC3)c(=O)n3ccccc23)CC1
Observed: cell-free assay
Technique: competition with immobilised ligand
Tested at: 1 µM
PRKCH (Homo sapiens, UniProt P24723) — remaining binding: 100%.
It gave 97% for remaining binding (Tyrosine-protein kinase ABL1, non-phosphorylated (ABL1, Homo sapiens, UniProt P00519, Q252H)).
The remaining binding was 79% (Ribosomal protein S6 kinase alpha-1, C-terminal kinase domain (RPS6KA1, Homo sapiens, UniProt Q15418)).
For STK33 (Homo sapiens, UniProt Q9BYT3): remaining binding read 62%.
The remaining binding was 77% (PIM2 (Homo sapiens, UniProt Q9P1W9)).
The remaining binding was 100% (MST1R (Homo sapiens, UniProt Q04912)).
For CAMKK1 (Homo sapiens, UniProt Q8N5S9): remaining binding read 100%.
For TLK1 (Homo sapiens, UniProt Q9UKI8): remaining binding read 85%.
For MTOR (Homo sapiens, UniProt P42345): remaining binding read 58%.
For GRK7 (Homo sapiens, UniProt Q8WTQ7): remaining binding read 87%.
It gave 100% for remaining binding (EGFR (Homo sapiens, UniProt P00533)).
PAK4 (Homo sapiens, UniProt O96013) — remaining binding: 100%.
For MAP3K10 (Homo sapiens, UniProt Q02779): remaining binding read 100%.
For CLK3 (Homo sapiens, UniProt P49761): remaining binding read 99%.
The remaining binding was 100% (COQ8B (Homo sapiens, UniProt Q96D53)).
FYN (Homo sapiens, UniProt P06241) — remaining binding: 83%.
It gave 83% for remaining binding (ACVR1 (Homo sapiens, UniProt Q04771)).
It gave 91% for remaining binding (CSK (Homo sapiens, UniProt P41240)).
The remaining binding was 85% (Tyrosine-protein kinase JAK2, JH1 (JAK2, Homo sapiens, UniProt O60674)).
NEK1 (Homo sapiens, UniProt Q96PY6) — remaining binding: 91%.

Series 2
Target: Interferon regulatory factor 5, full length, phosphomimetic (IRF5, Homo sapiens, UniProt Q13568-2, residues 1-514, S451D/S453D/S456D/S462D)
Technique: protein-binding microarray
Form: double-stranded DNA, one strand shown
Medium: in vitro
Tested at: 940 nM top
Notes: 60-bp whole probe
Together with: salmon DNA 0.4 mg/ml
Baseline: random background probes
Direction: higher = stronger binding
Constant ends, left off below: GCCTAGCAC … GTCTTGATTCGCTTGACGCTGCTG
Under “fitted relative affinity”, `CACGGTATCCTACTGCTGACGTGCTAG` is recorded as 0.24 z-score.
`CTTTGCTCATTTTTCAGGGAGTGCTAG`: “fitted relative affinity” 0.641 z-score.
For `TTAGGTCTCCTTCCCCTTTAGTGCTAG`, “fitted relative affinity” read 0.614 z-score.
Under “fitted relative affinity”, `ATAGGTATCCTTCTCCTTTAGTGCTAG` is recorded as 0.637 z-score.
Under “fitted relative affinity”, `TTAGGCTTCGACACTGGGTTAGTGCTA` is recorded as -0.214 z-score.
For `TTAGGTTTCGACTATCGGTTAGTGCTA`, “fitted relative affinity” read 8.46 z-score.
`TGAGGTTCCGGTTTCGGTTAGTGCTAG`: “fitted relative affinity” 9.07 z-score.
Under “fitted relative affinity”, `ATGTTTGTCACTCTCAGAATGTGCTAG` is recorded as 1.04 z-score.

Series 3
Target: TAR DNA-binding protein 43, full length, His tag (TARDBP, Homo sapiens, UniProt Q13148, residues 1-414)
Technique: RNA Bind-n-Seq
Form: RNA
Medium: in vitro
Tested at: 20 nM
Notes: 6-mer, flanks averaged, single round
Together with: 150 mM KCl
Baseline: input library
Direction: higher = stronger binding
`GACUGG`: “6-mer enrichment (R)” 1.62.
`GACCCA`: “6-mer enrichment (R)” 0.722.
For `UUUGGU`, “6-mer enrichment (R)” read 0.779.
For `AAUUGG`, “6-mer enrichment (R)” read 0.896.
`CUCCGU`: “6-mer enrichment (R)” 0.607.
For `ACGUGU`, “6-mer enrichment (R)” read 0.891.
`GGCCUA` — result for “6-mer enrichment (R)”: 0.976.
`GUAUAG`: “6-mer enrichment (R)” 0.904.

Series 4
Substance: HNRNPDL (Homo sapiens, UniProt O14979)
Technique: cross-linking MS
Notes: hits only
For VIM (Homo sapiens, UniProt P08670): interaction screen read “cross-linked”.
HNRNPL (Homo sapiens, UniProt P14866) — interaction screen: “cross-linked”.
For HNRNPU (Homo sapiens, UniProt Q00839): interaction screen read “cross-linked”.
HNRNPA1 (Homo sapiens, UniProt P09651) — interaction screen: “cross-linked”.

Single results of other studies
`CN(C)CCN(Cc1ccccc1)c1ccccn1` gave a nuclei count of 0.988 z-score (mouse MPNST tumor cells; high-content nuclear imaging, item: cell number; 10 µM, 12 h, mean of 2 replicates; baseline: plate mean, higher = more cells).
`CC(=O)c1c(-c2cccc3ccccc23)nc2n(CCN3CCCCC3)c3ccccc3n12` has a remaining compound of 0.106% (human, microsomes or S9; 2 µM, 0.5 h).
`O=C(Nc1c(-c2cccs2)nc2ccccn12)c1ccc(Cl)cc1` has a nuclei count of 2.17 z-score (mouse MPNST tumor cells; high-content nuclear imaging, item: cell number; 10 µM, 12 h, mean of 2 replicates; baseline: plate mean, higher = more cells).
The infection rate of `CC(C(=O)O)c1cccc(Oc2ccccc2)c1` (centres unmarked) is reported as 111% (Plasmodium berghei; inhibitor; Huh-7, liver stage; 10 µM, 24 h; baseline: untreated control).

A few entries again (series 4):
For VIM (Homo sapiens, UniProt P08670): interaction screen read “cross-linked”.
HNRNPL (Homo sapiens, UniProt P14866) — interaction screen: “cross-linked”.
HNRNPA1 (Homo sapiens, UniProt P09651) — interaction screen: “cross-linked”.
